Results collected from several papers.
A part holds a random share of what one study measured.

Block 1 — cell line: HEK-293T/ACE2; tested at: 10 µM; time: 16 h; relative to: vehicle
C[C@H]1COc2c(N3CCN(C)CC3)c(F)cc3c(=O)c(C(=O)O)cn1c23 has a viability of 100%.
CC(=O)N[C@@H](CS)C(=O)O gave a viability of 99.6%.
For CN(C)[C@@H]1C(O)=C(C(N)=O)C(=O)[C@@]2(O)C(O)=C3C(=O)c4c(O)cccc4[C@@](C)(O)[C@H]3C[C@@H]12, the viability was 99.7%.
With N[C@@H](Cc1ccc(N(CCCl)CCCl)cc1)C(=O)O the viability was 89.2%.

Block 2 — technique: protein binding microarray; form: double-stranded DNA, one strand shown; medium: in vitro; tested at: not given; relative to: not given; reading: higher = stronger binding
Target: Histone acetyltransferase KAT6A, winged helix 1, GST fusion (KAT6A, Homo sapiens, UniProt Q92794, residues 1-85)
Setting: 8-mer, flanks averaged, mean of 2 arrays, mostly near background
Construct (chain): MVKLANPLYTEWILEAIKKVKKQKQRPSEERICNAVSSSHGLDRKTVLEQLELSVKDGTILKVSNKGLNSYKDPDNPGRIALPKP
`AAGGAGGA` gave an E-score of -0.151.
The E-score of `AGCGCCCT` is reported as 0.264.
`CTCAAACA` has an E-score of -0.0766.
The E-score of `CACCGTGC` is reported as 0.0725.
`GATTGTTA` gave an E-score of -0.0434.
With `CTGCACAA` the E-score was -0.194.
With `CCTAATCC` the E-score was -0.05.
`GGCCGCTA` gave an E-score of 0.354.

Block 3 — effect on: enzyme activity; action: inhibitor; tested at: 20 µM; setting: primary screen
Target: Replicase polyprotein 1ab, main protease (rep, Severe acute respiratory syndrome coronavirus 2, UniProt P0DTD1)
With C=C(NNC(=S)NNC(=S)Nc1ccccc1Cl)c1ccccn1 the inhibition was 31.8%.
CO[C@H]1C([C@@]2(C)O[C@@H]2CC=C(C)C)[C@]2(CC[C@H]1OC(=O)NC(=O)CCl)CO2 (some centres unmarked) has an inhibition of 65.3%.
Cc1ccc([N+](=O)[O-])cc1S(=O)(=O)N(C)C has an inhibition of 45.8%.

Block 4 — technique: RNA Bind-n-Seq; form: RNA; medium: in vitro; tested at: 365 nM; relative to: no-protein control; reading: higher = stronger binding
Target: RNA binding protein fox-1 homolog 2, RRM domain, GST-SBP tag (RBFOX2, Homo sapiens, UniProt O43251-10, residues 100-194)
Setting: natural RNA segment, single round, ends assumed
Construct (chain): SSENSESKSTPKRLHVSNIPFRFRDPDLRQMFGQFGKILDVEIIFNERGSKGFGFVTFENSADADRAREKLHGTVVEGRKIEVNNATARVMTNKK
`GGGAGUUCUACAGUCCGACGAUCGGCGCUAUUAGGAAGCGUGGCCUUUUUGGACUAGGUGUGUCACUGUGGCUGUGGGGUAUAGCACCCUCACCCUAGCUGCCUGGAAGCCAGUAUCCUGCGAGCAGCCUUCAUGGAAUUCUCGGGUGCCAA`: “RBNS enrichment (R)” 0.447.
Under “RBNS enrichment (R)”, `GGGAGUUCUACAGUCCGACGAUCUUUGGAAAUAACCAGGGUUAAAGUUUUUAAUUUCUCAGGAAGAGCUCUUCAGCAUGGCAGGACGUGUAAUGAGGGCUUUCGCAAGUCCUUCAGCGCUGCAGAGCAGUAAGUGGAAUUCUCGGGUGCCAA` is recorded as 0.787.
Under “RBNS enrichment (R)”, `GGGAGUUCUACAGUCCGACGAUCCACUGGCUCCGGGUCUACAUGGUGGGAGGAUCAGGAUGCUAAUGUUUCCCCUCUUUGGUUCUCAAAUAGCAUAGUUUAAUAACGAGUCAGACCGUAUUACAACAAAAACAUGGAAUUCUCGGGUGCCAA` is recorded as 0.569.
Under “RBNS enrichment (R)”, `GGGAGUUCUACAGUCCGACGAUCCCAGCCAGUUGCCUUUGCUCAGAACUCCAUGGGGGUCUUCCCUUUCCAGCAGACCGGGUGCAUCCCUUUUCCUAAUACCUAAUAAAGAGCUUGACAGUGAUAUCCGCCAUUGGAAUUCUCGGGUGCCAA` is recorded as 0.903.
`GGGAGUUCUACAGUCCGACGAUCAUAUUGGACUUUUUUGAGCUUUAUCGUGGUUGUUAAUUUGAAGUAAUAAAGUAGAAAAGAUAAAGUGUGCAGGCAGCCCUUUGUCCACCUCUGUGCCCUUAGGGCCUCUCUGGAAUUCUCGGGUGCCAA` — result for “RBNS enrichment (R)”: 1.1.
Under “RBNS enrichment (R)”, `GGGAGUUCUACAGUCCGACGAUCUGUUUUUCCCUCUAGGACAAACACUUACCAAAAUAUGCAACUUUUUUUUGGUGGGAAGAGAGAUUGUCCUGUGAUUUCUACCCAUUUCCUGAGGCCUGUGGAAAUAAACCUGGAAUUCUCGGGUGCCAA` is recorded as 5.13.
`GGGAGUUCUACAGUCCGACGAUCAUUGCUCAUUUGUAAAAUUGUCCUAAUCUUUCCUAGCUUUUUAAUAGUUAAUAUUAGAAACUCUUUAAUAGUUUUCCUUUCAGUUUGUGAGCUCUUCUCUGUCGCCCUGAUGGAAUUCUCGGGUGCCAA`: “RBNS enrichment (R)” 0.515.
`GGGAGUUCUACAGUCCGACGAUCGCUAAAUGCCAGGAGGAAAAAGGUUCUCGAAGAACAGCAGAGUUUUCCUGUAAAACCAGUCUCAUUUGGGCUUCUCAUCUGUGCUCACCUUGAACCUACAAACCUCCAUGUGGAAUUCUCGGGUGCCAA`: “RBNS enrichment (R)” 0.322.

Block 5 — effect on: enzyme activity; action: inhibitor; tested at: 20 µM
Target: Replicase polyprotein 1ab, polymerase (rep, Severe acute respiratory syndrome coronavirus 2, UniProt P0DTD1)
The inhibition of OCCNC1CCCc2c1[nH]c1ccc(-c3ccccc3)cc21 (centres unmarked) is reported as -4.74%.
For Fc1ccc(-c2cncc(CN3CCN(c4cccc5c4OCCO5)CC3)c2)cc1, the inhibition was -5.16%.
For CCOC(=O)[C@H]1O[C@@H]1C(=O)N[C@@H](CC(C)C)C(=O)NCCC(C)C, the inhibition was 11.1%.
With CNCCn1c(=O)c2cc(OC)c(OC)cc2c2cnc3cc4c(cc3c21)OCO4 the inhibition was -4.44%.
O=C(NCC1CCCCN1)c1cc(OCC(F)(F)F)ccc1OCC(F)(F)F (centres unmarked) gave an inhibition of -2.76%.
COc1cc2c(cc1OC)CC(=O)N(CCCN(C)C[C@H]1Cc3cc(OC)c(OC)cc31)CC2 has an inhibition of -4.86%.
The inhibition of Nc1c(CC(=O)O)cccc1C(=O)c1ccccc1 is reported as -5.41%.
CC(C(=O)O)c1cccc(C(=O)c2ccccc2)c1 (centres unmarked) gave an inhibition of 20.3%.
The inhibition of C[C@@]1(O)[C@H](O)[C@@H](CO)O[C@H]1n1cnc2c(=O)[nH]c(N)nc21 is reported as -0.08%.
CC(C)Nc1nc2cc(Cl)c(Cl)cc2n1[C@H]1O[C@@H](CO)[C@H](O)[C@@H]1O has an inhibition of 0.77%.
With CC(=O)N1CCN(c2ccc(OC[C@@H]3CO[C@@](Cn4ccnc4)(c4ccc(Cl)cc4Cl)O3)cc2)CC1 (racemic) the inhibition was 26.5%.
The inhibition of Nc1cc(Cl)c(N=C2NCCN2)c(Cl)c1 is reported as -0.01%.
With O=C(Nc1nc2cccc(-c3ccc(CN4CCS(=O)(=O)CC4)cc3)n2n1)C1CC1 the inhibition was 0.9%.
CCO[C@H]1O[C@@H]2O[C@@]3(C)CC[C@H]4[C@H](C)CC[C@@H]([C@H]1C)[C@@]24OO3 gave an inhibition of -3.42%.
For N#C[C@H](O[C@@H]1O[C@H](CO[C@@H]2O[C@H](CO)[C@@H](O)[C@H](O)[C@H]2O)[C@@H](O)[C@H](O)[C@H]1O)c1ccccc1, the inhibition was 3.51%.
COc1ccccc1N1CCN(CCCCNC(=O)c2ccc(-c3ccc(C(C)=O)cc3)cc2)CC1 has an inhibition of 0.55%.
For COc1ccc(C(=O)c2ccccc2O)c(O)c1, the inhibition was 3.07%.
CNC1CCCN(c2c(F)cc3c(=O)c(C(=O)O)cn(C4CC4)c3c2OC)C1 (centres unmarked) gave an inhibition of -3.31%.
O=C1C2CCN(CC2)C1(CO)CO gave an inhibition of 1.86%.
For c1ccc2c(-c3cnn4cc(-c5ccc(N6CCNCC6)cc5)cnc34)ccnc2c1, the inhibition was 10.4%.
CC[C@H](C)[C@H](N)C(=O)O has an inhibition of 5.11%.
Cc1cnc(Nc2ccc(OCCN3CCCC3)cc2)nc1Nc1cccc(S(=O)(=O)NC(C)(C)C)c1 has an inhibition of 4.6%.
With O=C(O)c1cccc(-c2noc(-c3ccccc3F)n2)c1 the inhibition was -7.89%.
For CCCCCCCC(=O)OCC(O)CO (centres unmarked), the inhibition was -11.5%.
For FC(F)OC(F)(F)C(F)Cl (centres unmarked), the inhibition was 1.69%.

Block 6 — technique: competition protein-binding microarray; form: double-stranded DNA, one strand shown; medium: in vitro; tested at: 2 µM; together with: Cbf1 competitor, 0.05 µM; reading: higher = stronger binding
Target: Phosphate system positive regulatory protein PHO4, full length, GST-tagged (PHO4, Saccharomyces cerevisiae, UniProt P07270, residues 1-312)
Setting: whole 60-bp probe, lowest competitor level
Construct (chain): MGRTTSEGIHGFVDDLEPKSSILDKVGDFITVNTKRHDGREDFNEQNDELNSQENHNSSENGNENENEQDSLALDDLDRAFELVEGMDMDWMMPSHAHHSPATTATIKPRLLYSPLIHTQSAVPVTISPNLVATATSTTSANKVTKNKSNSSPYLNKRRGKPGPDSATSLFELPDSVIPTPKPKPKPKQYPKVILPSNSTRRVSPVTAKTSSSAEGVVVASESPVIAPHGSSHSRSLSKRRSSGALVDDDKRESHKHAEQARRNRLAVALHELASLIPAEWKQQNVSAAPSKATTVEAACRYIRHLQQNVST
`CTAACGAAGGTTTGCAAGGTGGGTGACAAGCCAAGTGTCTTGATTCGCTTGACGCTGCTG` has a fluorescence intensity of 4170 a.u.
`CGGCCTGCAATGTTCCACGTGGACCACTCATCAAACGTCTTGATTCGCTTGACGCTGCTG` has a fluorescence intensity of 18000 a.u.
For `CTTTCCCGATCTTGAGTCGTGGGTGTAGCACATTTGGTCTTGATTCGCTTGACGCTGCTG`, the fluorescence intensity was 7150 a.u.
`TCCAATGGTTCGAACCATGTGGAAGAAGATGCAGAAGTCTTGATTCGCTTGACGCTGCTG` gave a fluorescence intensity of 7590 a.u.
For `GTCTTGTCTCATTGCGAAGTGGGTGTCCCCACTTCAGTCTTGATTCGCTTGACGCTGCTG`, the fluorescence intensity was 4100 a.u.
With `ATTCCACTAGGGCTGGTCGTGGGTAACTTGGGGAGCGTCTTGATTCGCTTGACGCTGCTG` the fluorescence intensity was 6490 a.u.
For `CATACCCAACCTTGATTAGTGGGTGAAGATATTTGTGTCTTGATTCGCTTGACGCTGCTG`, the fluorescence intensity was 3760 a.u.
With `AGCACCACAGCGTACCATGTGCGCTACGAGGCCTCAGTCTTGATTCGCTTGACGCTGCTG` the fluorescence intensity was 11200 a.u.

For quick reference, copied from above (block 2):
The E-score of `AGCGCCCT` is reported as 0.264.
`AAGGAGGA` gave an E-score of -0.151.
`GGCCGCTA` gave an E-score of 0.354.
`CTCAAACA` has an E-score of -0.0766.
The E-score of `CACCGTGC` is reported as 0.0725.
With `CCTAATCC` the E-score was -0.05.
